Measurements collected from several papers.
Protocols differ between the studies behind these lines. Values joined by “and” are separate records of one study, mostly repeats; a detail may differ. ± gives the spread as reported.

With `Cc1cn(CC(=O)N(CC(=O)N[C@H]2COC[C@@H]2N(CC(=O)NCCOCCOCC(N)=O)C(=O)Cn2cnc3c(N)ncnc32)[C@H]2COC[C@@H]2NC(=O)CN(C(=O)Cn2cnc3c(N)ncnc32)[C@H]2COC[C@@H]2NC(=O)CN(C(=O)Cn2cnc3c(=O)[nH]c(N)nc32)[C@H]2COC[C@@H]2NC(=O)CN(C(=O)Cn2cc(C)c(=O)[nH]c2=O)[C@H]2COC[C@@H]2NC(=O)CN(C(=O)Cn2cnc3c(=O)[nH]c(N)nc32)[C@H]2COC[C@@H]2NC(=O)CN(C(=O)Cn2cc(C)c(=O)[nH]c2=O)[C@H]2COC[C@@H]2NC(=O)CN(C(=O)Cn2cnc3c(N)ncnc32)[C@H]2COC[C@@H]2NC(=O)CN(C(=O)Cn2cnc3c(=O)[nH]c(N)nc32)[C@H]2COC[C@@H]2N)c(=O)[nH]c1=O` the ΔTm was -18.8 °C (mismatched DNA TT; duplex formation, UV melting; reference: complementary DNA).
The pIC50 of `Fc1ccc(Nc2nc(NC3CCCCC3)c3cc(Br)ccc3n2)cc1F` is reported as 6.2 (β2AR/β1AR ECL3 chimera; β-arrestin2 recruitment, antagonist, BRET; added: isoprenaline 1 µM).
`O=C1CO[C@H](CNC(=O)C2(c3ccc(Cl)cc3)CC2)CN1C1Cc2ccccc2C1` gave a ΔTm of 3.2 °C and 4.1 °C and 4 °C and 3.3 °C and 4.8 °C (human CCR6 thermostabilised; thermal shift; 10 µM).
For `C=CC(=O)N1[C@@H](c2ccc3c(c2)OCO3)c2[nH]c3ccccc3c2C[C@H]1C(=O)N1CCN(C)CC1`, “log2 fold change” read 0.19 (CCNE1 WT-3xFLAG:CDK2 complex; co-IP TMT proteomics, refers to: RAB11FIP2; HEK-293T; 20 µM, 6 h; reference: DMSO).
`NCCOc1cc(NC(=O)c2cc(Cl)cc(C(=O)Nc3cc(OCCN)c4ccccc4n3)n2)nc2ccccc12` has a ΔTm of 36.5 ± 0.9 K (human telomeric G-quadruplex DNA; FRET melting; 1 µM, pH 7.4, added: 60 mM potassium).
For `c1ccc(-c2n[nH]cc2-c2ccnc3ccccc23)nc1`, “log2 fold change” read -0.02 (CDC7 (Candida albicans); kinase binding, MIB/MS competition; Candida albicans lysate; 1 µM; reference: DMSO).
`C=CC(=O)Nc1cccc(Cn2ncc3cnc(Nc4cnn(CCOC)c4)nc32)c1`: “percent of control” 80% (PIK3CA human; binding, KINOMEscan; 100 nM; lower = stronger binding).
Under “log2 fold change”, `CC[C@H](C)[C@H](NC(=O)[C@H](CC(C)C)NC(=O)[C@H](C)NC(=O)[C@H](C)NC(=O)[C@@H]1CCCN1C(=O)[C@@H](NC(=O)[C@H](C)N)C(C)C)C(=O)N[C@@H](CC(C)C)C(=O)N[C@@H](CCCNC(=N)N)C(=O)N[C@@H](CCC(=O)O)C(=O)N[C@@H](CCCCN)C(=O)N[C@@H](CCCCN)C(=O)N[C@@H](CCCCN)C(=O)N[C@@H](CCCCNC(=O)CCCCCNC(=S)Nc1ccc2c(c1)C(=O)OC21c2ccc(O)cc2Oc2cc(O)ccc21)C(N)=O` is recorded as 7.92 (XIAP (human); DIABLO peptide pull-down; concentration not given, 100-fold competition; reference: empty beads).
The remaining binding of `Nc1ncc(-c2cc(-c3cnn(CC(F)(F)F)c3)ncc2F)nc1C(=O)NC1CNCC(F)C1` (stereo not shown) is reported as 81% (MELK; KINOMEscan; 1 µM; reference: DMSO control).
`C[n+]1ccc(/C=N/NC(=O)c2cncc(C(=O)N/N=C/c3cc[n+](C)c4ccccc34)n2)c2ccccc21` has a delta Tm of 21.8 °C (human telomeric G-quadruplex DNA; UV melting; 6 µM, 100 mM potassium, added: DNA 3 µM).
